Measurements of several laboratories.
Compare with care: the assays were run in different laboratories. Several values in a cell are separate wells, animals, samples, runs or records.
Organism: Mycobacterium tuberculosis

Compound | test | test system | conditions | how to read | measurement | value
CCC(CO)NCCNC(CC)CO.O=C(CN1C(=O)CSC1=O)Oc1ccc(C=NNC(=O)c2ccccn2)cc1Br | growth in combination | H37Rv | with: reference drug at 1/2 MIC |  | MIC | 0.5 mg/L
O=C(CCC1CCCCC1)Nc1cccc(-c2nnc(-c3ccco3)o2)c1 | bacterial growth, inhibitor | mmpL3-TetON |  |  | IC50 | 2.4 µM
CCc1nc2ccc(Cl)cn2c1C(=O)NC/C=C(\C)CC/C=C(\C)CCC=C(C)C | optical density | H37Rv | 144 h |  | MIC | > 10 µM
CCC(CO)NCCNC(CC)CO.CCOc1cc(C=NNC(N)=S)ccc1OC(=O)CN1C(=O)CSC1=O | two-drug checkerboard | H37Rv | concentration not given, unit not given | lower means more synergy | FICI | 2
Cc1cc(Oc2nc(N3CC[C@@H](c4ccncc4)C3)ncc2F)[nH]n1 | OD | H37Rv PurF CRISPRi knockdown | 0.125 µM, with: anhydrotetracycline low |  | normalised growth | 3% and 2%
Cc1cccc(-c2nc(Nc3ccncn3)c3sccc3n2)n1 | bacterial growth, inhibitor | mmpL3-TetON |  |  | IC50 | 0.96 µM
Cc1ccn2c(C(=O)NCc3ccccc3)c(C)nc2c1 | optical density | H37Rv | 144 h |  | MIC | 2.5 µM
COc1ccc2sc(Nc3nc(-c4ccccn4)cs3)nc2c1 | microbial growth |  |  |  | IC50 | 17.2 µM
CCC(CO)NCCNC(CC)CO.COc1cc(C=NNC(=O)c2ccncc2)ccc1OC(=O)CN1C(=O)CSC1=O | growth in combination | 192 | with: reference drug at 1/2 MIC |  | MIC | 0.5 mg/L

For quick reference, copied from above:
Compound | test | test system | conditions | how to read | measurement | value
CCC(CO)NCCNC(CC)CO.O=C(CN1C(=O)CSC1=O)Oc1ccc(C=NNC(=O)c2ccccn2)cc1Br | growth in combination | H37Rv | with: reference drug at 1/2 MIC |  | MIC | 0.5 mg/L
